# Measurements collected from several papers.
# Numbered parts are unrelated; each lists some results of a single study.
# Chain of UniProt P07949 (whole entry, unmodified, looked up): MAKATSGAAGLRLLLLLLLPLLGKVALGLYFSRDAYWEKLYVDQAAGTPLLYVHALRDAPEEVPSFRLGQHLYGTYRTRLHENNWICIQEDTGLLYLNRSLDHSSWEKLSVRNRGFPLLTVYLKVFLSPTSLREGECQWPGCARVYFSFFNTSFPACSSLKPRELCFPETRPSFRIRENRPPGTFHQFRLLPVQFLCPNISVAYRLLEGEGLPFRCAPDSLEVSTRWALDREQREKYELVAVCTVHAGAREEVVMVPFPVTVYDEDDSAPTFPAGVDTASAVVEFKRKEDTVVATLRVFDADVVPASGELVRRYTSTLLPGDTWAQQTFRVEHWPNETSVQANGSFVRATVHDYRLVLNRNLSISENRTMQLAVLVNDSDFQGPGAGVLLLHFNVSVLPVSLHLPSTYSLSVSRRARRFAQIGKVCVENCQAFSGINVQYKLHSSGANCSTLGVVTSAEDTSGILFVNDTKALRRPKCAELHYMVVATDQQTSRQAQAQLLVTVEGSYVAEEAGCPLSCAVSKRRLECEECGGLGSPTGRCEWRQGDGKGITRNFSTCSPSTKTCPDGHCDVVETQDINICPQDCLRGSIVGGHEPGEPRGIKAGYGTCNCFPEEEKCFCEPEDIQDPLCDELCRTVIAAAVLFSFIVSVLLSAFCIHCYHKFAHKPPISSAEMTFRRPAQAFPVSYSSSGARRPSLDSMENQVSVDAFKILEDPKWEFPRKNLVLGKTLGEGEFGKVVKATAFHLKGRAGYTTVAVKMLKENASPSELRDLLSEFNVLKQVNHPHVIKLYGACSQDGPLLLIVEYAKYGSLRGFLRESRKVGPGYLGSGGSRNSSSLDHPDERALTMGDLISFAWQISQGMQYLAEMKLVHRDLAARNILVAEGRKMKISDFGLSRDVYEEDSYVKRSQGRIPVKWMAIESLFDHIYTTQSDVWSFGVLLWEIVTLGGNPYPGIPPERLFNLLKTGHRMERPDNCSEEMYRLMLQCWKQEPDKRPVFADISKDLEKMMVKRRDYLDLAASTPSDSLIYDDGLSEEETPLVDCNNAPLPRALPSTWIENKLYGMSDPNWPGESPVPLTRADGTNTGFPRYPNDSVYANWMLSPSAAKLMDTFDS
# Chain of UniProt Q9H4B4 (whole entry, looked up): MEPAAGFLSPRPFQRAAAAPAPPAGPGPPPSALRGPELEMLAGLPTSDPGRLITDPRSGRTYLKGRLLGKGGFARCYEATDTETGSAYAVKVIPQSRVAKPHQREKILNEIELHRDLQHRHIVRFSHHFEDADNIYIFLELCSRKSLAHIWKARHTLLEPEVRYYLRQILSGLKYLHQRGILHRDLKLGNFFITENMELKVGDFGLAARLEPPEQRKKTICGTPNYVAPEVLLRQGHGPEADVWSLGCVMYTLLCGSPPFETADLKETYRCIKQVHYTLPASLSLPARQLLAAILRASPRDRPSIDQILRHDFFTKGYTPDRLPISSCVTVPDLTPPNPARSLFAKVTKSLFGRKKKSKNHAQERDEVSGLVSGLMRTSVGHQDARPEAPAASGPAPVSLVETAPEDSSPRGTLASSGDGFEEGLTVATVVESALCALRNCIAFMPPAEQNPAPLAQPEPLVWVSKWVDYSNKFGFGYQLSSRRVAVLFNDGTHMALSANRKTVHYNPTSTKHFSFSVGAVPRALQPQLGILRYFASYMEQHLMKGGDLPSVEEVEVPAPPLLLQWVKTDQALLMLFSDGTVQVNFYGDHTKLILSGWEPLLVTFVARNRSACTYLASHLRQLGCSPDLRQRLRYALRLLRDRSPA
# Chain of UniProt P42336 (whole entry, unmodified, looked up): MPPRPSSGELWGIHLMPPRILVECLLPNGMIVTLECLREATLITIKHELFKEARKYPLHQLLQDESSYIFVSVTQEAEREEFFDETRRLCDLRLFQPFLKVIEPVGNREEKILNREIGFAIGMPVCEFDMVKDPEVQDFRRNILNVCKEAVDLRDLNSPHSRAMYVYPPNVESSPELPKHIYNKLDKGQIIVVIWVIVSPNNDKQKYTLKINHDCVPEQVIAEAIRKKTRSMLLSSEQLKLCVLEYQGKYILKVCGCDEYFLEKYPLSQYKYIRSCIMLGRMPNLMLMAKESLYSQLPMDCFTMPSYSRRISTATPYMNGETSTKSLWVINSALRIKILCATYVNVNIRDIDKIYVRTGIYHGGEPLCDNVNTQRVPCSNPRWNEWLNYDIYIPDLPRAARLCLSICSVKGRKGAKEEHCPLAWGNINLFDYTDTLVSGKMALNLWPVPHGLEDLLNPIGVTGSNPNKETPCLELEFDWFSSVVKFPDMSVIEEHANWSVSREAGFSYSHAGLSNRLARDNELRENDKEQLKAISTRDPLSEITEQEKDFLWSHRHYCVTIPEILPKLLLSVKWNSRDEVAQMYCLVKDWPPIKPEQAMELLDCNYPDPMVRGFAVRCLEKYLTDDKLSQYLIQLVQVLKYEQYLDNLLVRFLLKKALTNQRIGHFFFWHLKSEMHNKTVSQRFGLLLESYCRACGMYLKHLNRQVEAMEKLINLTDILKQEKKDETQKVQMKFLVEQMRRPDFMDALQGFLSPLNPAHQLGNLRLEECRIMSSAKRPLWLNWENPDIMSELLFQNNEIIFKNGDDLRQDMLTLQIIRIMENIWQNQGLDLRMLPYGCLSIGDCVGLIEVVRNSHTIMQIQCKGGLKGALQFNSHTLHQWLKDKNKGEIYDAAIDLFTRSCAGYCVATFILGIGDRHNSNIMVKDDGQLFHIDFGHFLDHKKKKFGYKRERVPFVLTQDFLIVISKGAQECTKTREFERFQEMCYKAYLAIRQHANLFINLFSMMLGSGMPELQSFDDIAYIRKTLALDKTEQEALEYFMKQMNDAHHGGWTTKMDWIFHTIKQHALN
# Chain of UniProt P50613 (whole entry, looked up): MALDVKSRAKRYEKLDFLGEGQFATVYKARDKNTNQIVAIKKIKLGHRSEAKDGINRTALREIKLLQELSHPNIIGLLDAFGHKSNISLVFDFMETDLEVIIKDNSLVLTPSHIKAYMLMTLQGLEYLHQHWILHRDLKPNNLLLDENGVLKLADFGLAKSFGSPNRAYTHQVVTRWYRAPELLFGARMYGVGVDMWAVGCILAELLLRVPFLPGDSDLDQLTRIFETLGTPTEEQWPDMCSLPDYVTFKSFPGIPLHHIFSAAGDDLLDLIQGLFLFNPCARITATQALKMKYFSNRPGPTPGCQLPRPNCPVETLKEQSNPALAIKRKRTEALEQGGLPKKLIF
# Chain of UniProt O94768 (whole entry, looked up): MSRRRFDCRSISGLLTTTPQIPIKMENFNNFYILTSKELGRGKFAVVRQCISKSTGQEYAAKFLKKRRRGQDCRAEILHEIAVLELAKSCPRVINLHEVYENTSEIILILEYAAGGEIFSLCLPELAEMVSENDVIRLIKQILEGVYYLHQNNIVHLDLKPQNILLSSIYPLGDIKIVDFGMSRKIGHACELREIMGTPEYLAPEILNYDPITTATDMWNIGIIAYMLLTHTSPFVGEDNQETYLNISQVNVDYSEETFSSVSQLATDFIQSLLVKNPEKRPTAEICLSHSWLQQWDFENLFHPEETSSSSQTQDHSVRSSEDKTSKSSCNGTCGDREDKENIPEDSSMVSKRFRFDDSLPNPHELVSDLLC
# Chain of UniProt P42681 (whole entry, looked up): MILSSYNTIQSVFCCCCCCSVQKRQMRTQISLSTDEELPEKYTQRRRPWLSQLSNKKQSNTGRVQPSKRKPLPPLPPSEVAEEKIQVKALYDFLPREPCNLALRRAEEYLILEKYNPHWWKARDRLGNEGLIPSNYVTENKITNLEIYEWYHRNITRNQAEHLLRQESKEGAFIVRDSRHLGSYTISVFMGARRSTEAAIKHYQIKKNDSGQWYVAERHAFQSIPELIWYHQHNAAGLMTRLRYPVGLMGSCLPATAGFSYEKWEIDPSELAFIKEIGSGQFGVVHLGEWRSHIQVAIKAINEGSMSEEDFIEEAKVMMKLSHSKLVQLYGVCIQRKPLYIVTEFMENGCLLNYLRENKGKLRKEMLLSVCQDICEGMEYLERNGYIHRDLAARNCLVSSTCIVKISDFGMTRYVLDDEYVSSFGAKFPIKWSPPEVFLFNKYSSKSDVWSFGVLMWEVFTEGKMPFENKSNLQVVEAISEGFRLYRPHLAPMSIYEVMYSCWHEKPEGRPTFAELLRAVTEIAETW
# Chain of UniProt P68400 (whole entry, looked up): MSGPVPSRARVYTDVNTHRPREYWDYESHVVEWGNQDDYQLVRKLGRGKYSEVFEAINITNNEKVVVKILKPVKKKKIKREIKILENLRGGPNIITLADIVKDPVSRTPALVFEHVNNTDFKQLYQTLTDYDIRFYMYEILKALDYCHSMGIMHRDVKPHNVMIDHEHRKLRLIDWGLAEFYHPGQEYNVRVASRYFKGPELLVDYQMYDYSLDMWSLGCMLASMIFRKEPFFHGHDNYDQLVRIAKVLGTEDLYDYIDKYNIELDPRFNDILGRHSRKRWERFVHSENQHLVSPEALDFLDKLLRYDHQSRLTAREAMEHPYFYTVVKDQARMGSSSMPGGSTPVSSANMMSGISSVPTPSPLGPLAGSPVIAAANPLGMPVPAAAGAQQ
# Chain of UniProt Q8TDR2 (whole entry, looked up): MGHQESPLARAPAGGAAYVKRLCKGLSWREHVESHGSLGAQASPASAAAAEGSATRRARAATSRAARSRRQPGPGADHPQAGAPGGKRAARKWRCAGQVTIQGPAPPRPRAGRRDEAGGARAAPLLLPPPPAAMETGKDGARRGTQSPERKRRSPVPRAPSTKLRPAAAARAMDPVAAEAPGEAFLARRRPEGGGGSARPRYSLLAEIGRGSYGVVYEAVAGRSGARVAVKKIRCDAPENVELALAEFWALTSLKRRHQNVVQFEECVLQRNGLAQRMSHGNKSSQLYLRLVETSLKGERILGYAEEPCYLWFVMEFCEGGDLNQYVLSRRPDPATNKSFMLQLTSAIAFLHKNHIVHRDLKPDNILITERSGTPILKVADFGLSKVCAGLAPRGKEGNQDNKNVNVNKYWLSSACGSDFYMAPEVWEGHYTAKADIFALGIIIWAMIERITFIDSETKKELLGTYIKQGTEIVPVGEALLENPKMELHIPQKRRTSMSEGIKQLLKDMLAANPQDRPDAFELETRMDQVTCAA

# Sample 1 — SMILES: COc1cc2ncnc(Nc3ccc(O)c(Br)c3)c2cc1OC; effect on: enzyme activity; action: inhibitor; tested at: 0.5 µM; baseline: control
target,remaining activity [%]
"DCLK2 (Homo sapiens, UniProt Q8N568)",101
"MARK4 (Homo sapiens, UniProt Q96L34)",92.4
"ROCK1 (Homo sapiens, UniProt Q13464)",96.1
"DDR2 (Homo sapiens, UniProt Q16832)",119
"Cyclin-dependent kinase 9, with cyclin K (CDK9, Homo sapiens, UniProt P50750)",91.1
"NEK3 (Homo sapiens, UniProt P51956)",88.4
"PRKG2 (Homo sapiens, UniProt Q13237)",84.1
"CLK4 (Homo sapiens, UniProt Q9HAZ1)",101
"TXK (Homo sapiens, UniProt P42681)",83.3
"MAPK14 (Homo sapiens, UniProt Q16539)",87.3
"PLK3 (Homo sapiens, UniProt Q9H4B4)",95.2
"MET (Homo sapiens, UniProt P08581)",96.4
"CAMK4 (Homo sapiens, UniProt Q16566)",95.6
"PNCK (Homo sapiens, UniProt Q6P2M8)",103

# Sample 2 — host: mouse; sample: microsomes or S9; tested at: 2 µM; time: 0.5 h
SMILES,remaining compound [%]
CC(C)(C)OC(=O)N1CCCC1C(=O)NC(CC1=NOC(C(N)=O)C1)c1ccccc1 (stereo not shown),40.3
Cc1ccnc(COc2cc(C)nc3onc(C)c23)n1,7.21
O=S(=O)(CCNc1ccccc1F)c1ccccc1,0.122
Cc1csc(-c2noc(Cc3csc(C(C)C)n3)n2)n1,8.87
Clc1ccc(-c2noc(-c3ccc(Nc4ccc5c(c4)OCCO5)nn3)n2)cc1,43.2
Cc1nc(O)cc(COCc2ccccc2)c1C#N,6.57
Cc1cnc(-c2nc(NCCc3ccncc3)ncc2-c2onc(C)c2C)cn1,7.35
O=C(Cn1ccc2ccccc21)NCCn1ncccc1=O,75.3
CCCNc1ccc2ncc(-c3ccc4[nH]ncc4c3)n2n1,0.313
O=C(O)CC1CCC(c2ccc(-c3ccc(C(=O)NCCC(=O)Nc4nc(-c5cc(F)c(F)cc5F)cs4)cn3)cc2)CC1 (stereo not shown),73.5
CCc1nn(CC(=O)N2CCC(N3CCCCC3)CC2)c(=O)c2cc3sccc3n12,76.7
CCOc1cc(=O)n2c(c1C(=O)N(CC)Cc1ccncc1)CCCCC2,35.3
O=c1c2c([nH]n1-c1nc3ccccc3[nH]1)CCCC2,51.1
CCn1c(N)c(-c2nc3ccccc3[nH]2)c(=O)c2ccccc21,17.3
CC(C)N(CCNc1ncnc2nc[nH]c12)C(C)C,54.3
CCc1ccc(/C=N/Nc2nn3cnnc3c3ccccc23)cc1,16.1
CCOC(=O)c1c(C)nc2c(c3c(n2Cc2ccc(OC)cc2)CCC3)c1-c1ccc2c3c(ccnc13)CCO2,0.152

# Sample 3 — method: competition with immobilised ligand; tested at: 1 µM
# SMILES: CCc1ccccc1C(=O)Nc1n[nH]c2c(C)c(F)c(C3C(C#N)=C(C)N(C)C(C)=C3C#N)cc12
target,effect on,remaining binding [%]
"PIK3CA (Homo sapiens, UniProt P42336, E545K)",cell-free assay,100
"IGF1R (Homo sapiens, UniProt P08069)",cell-free assay,87
"BMPR1A (Homo sapiens, UniProt P36894)",binding,87
"PI4KB (Homo sapiens, UniProt Q9UBF8)",cell-free assay,100
"CSF1R (Homo sapiens, UniProt P07333)",cell-free assay,100
"CDKL3 (Homo sapiens, UniProt Q8IVW4)",binding,87
"PKMYT1 (Homo sapiens, UniProt Q99640)",cell-free assay,100
"PIM1 (Homo sapiens, UniProt P11309)",cell-free assay,100
"PAK5 (Homo sapiens, UniProt Q9P286)",cell-free assay,100
"MAK (Homo sapiens, UniProt P20794)",binding,100
"STK17B (Homo sapiens, UniProt O94768)",cell-free assay,100
"PIK3CB (Homo sapiens, UniProt P42338)",cell-free assay,100
"CSNK2A1 (Homo sapiens, UniProt P68400)",cell-free assay,100
"BRAF (Homo sapiens, UniProt P15056, V600E)",cell-free assay,100
"CDC42BPA (Homo sapiens, UniProt Q5VT25)",cell-free assay,100
"CDK7 (Homo sapiens, UniProt P50613)",cell-free assay,90
"LIM domain kinase 1 (LIMK1, Homo sapiens, UniProt P53667)",cell-free assay,100
"PLK3 (Homo sapiens, UniProt Q9H4B4)",cell-free assay,100
"EGFR (Homo sapiens, UniProt P00533, G719C)",cell-free assay,55
"MATK (Homo sapiens, UniProt P42679)",cell-free assay,100
"RET (Homo sapiens, UniProt P07949, V804M)",cell-free assay,11
"STK35 (Homo sapiens, UniProt Q8TDR2)",cell-free assay,100
"Tyrosine-protein kinase JAK1, JH2 (JAK1, Homo sapiens, UniProt P23458)",cell-free assay,91
"Tyrosine-protein kinase ABL1, non-phosphorylated (ABL1, Homo sapiens, UniProt P00519, T315I)",cell-free assay,100
"STK24 (Homo sapiens, UniProt Q9Y6E0)",cell-free assay,90

# Sample 4 — effect on: enzyme activity; action: inhibitor; tested at: 1 µM
# Compound: CO[C@@H]1[C@H](N(C)C(=O)c2ccccc2)C[C@H]2O[C@]1(C)n1c3ccccc3c3c4c(c5c6ccccc6n2c5c31)C(=O)NC4
target,inhibition
"PHKG2 (Homo sapiens, UniProt P15735)",41%
"MAP3K15 (Homo sapiens, UniProt Q6ZN16)",3%
"STK25 (Homo sapiens, UniProt O00506)",0%
"MERTK (Homo sapiens, UniProt Q12866)",88%
"STK17A (Homo sapiens, UniProt Q9UEE5)",73%
"MAPKAPK5 (Homo sapiens, UniProt Q8IW41)",24%
"TSSK1B (Homo sapiens, UniProt Q9BXA7)",70%
"PAK4 (Homo sapiens, UniProt O96013)",3%
"FGFR1 (Homo sapiens, UniProt P11362)",56%
"Insulin receptor (INSR, Homo sapiens, UniProt P06213)",0%
"RET (Homo sapiens, UniProt P07949, V804M)",99%
"PIK3CA (Homo sapiens, UniProt P42336, H1047L)",8%
"Mast/stem cell growth factor receptor Kit, autoinhibited (KIT, Homo sapiens, UniProt P10721)",34%
"LRRK2 (Homo sapiens, UniProt Q5S007)",75%
"Tyrosine-protein kinase ABL1, phosphorylated (ABL1, Homo sapiens, UniProt P00519, Q252H)",7%
"EPHA4 (Homo sapiens, UniProt P54764)",4%
"WEE1 (Homo sapiens, UniProt P30291)",0%

# Repeated from above (sample 2):
SMILES,remaining compound [%]
CCc1nn(CC(=O)N2CCC(N3CCCCC3)CC2)c(=O)c2cc3sccc3n12,76.7
CC(C)N(CCNc1ncnc2nc[nH]c12)C(C)C,54.3
Cc1cnc(-c2nc(NCCc3ccncc3)ncc2-c2onc(C)c2C)cn1,7.35
CCCNc1ccc2ncc(-c3ccc4[nH]ncc4c3)n2n1,0.313
Clc1ccc(-c2noc(-c3ccc(Nc4ccc5c(c4)OCCO5)nn3)n2)cc1,43.2
O=C(O)CC1CCC(c2ccc(-c3ccc(C(=O)NCCC(=O)Nc4nc(-c5cc(F)c(F)cc5F)cs4)cn3)cc2)CC1 (stereo not shown),73.5
O=S(=O)(CCNc1ccccc1F)c1ccccc1,0.122
Cc1csc(-c2noc(Cc3csc(C(C)C)n3)n2)n1,8.87
CC(C)(C)OC(=O)N1CCCC1C(=O)NC(CC1=NOC(C(N)=O)C1)c1ccccc1 (stereo not shown),40.3
Cc1nc(O)cc(COCc2ccccc2)c1C#N,6.57
CCn1c(N)c(-c2nc3ccccc3[nH]2)c(=O)c2ccccc21,17.3
O=c1c2c([nH]n1-c1nc3ccccc3[nH]1)CCCC2,51.1
